Experimental data pooled from the literature.
Compare with care: the assays were run in different laboratories. Numbers after ± are the reported error.

CCCC[C@H](NC(=O)CNC(=O)CNC(=O)[C@H](CCCCNC(=O)C(C)c1ccc(CC(C)C)cc1)NC(=O)CN1CCN(CC(=O)O)CCN(CC(=O)O)CCN(CC(=O)O)CC1)C(=O)N[C@H]1CC(=O)NCCCC[C@@H](C(N)=O)NC(=O)[C@H](Cc2c[nH]c3ccccc23)NC(=O)[C@H](CCCNC(=N)N)NC(=O)[C@@H](Cc2ccccc2)NC(=O)[C@H](Cc2c[nH]cn2)NC1=O (stereo partly drawn) [lutetium-177 labelled]  tissue uptake (C57 mice, tumour-bearing, spleen; 2 h): 1.71 ± 0.47 %ID/g
COc1ccc2c(c1)C(C)(C)C(/C=C/C1=C(Oc3ccc(C(=O)NCCCCOc4cc(CN(Cc5ccccn5)Cc5ccccn5)cc(CN(Cc5ccccn5)Cc5ccccn5)c4)cc3)C(=C/C=C3/N(CCCCS(=O)(=O)[O-])c4ccc(OC)cc4C3(C)C)CCC1)=[N+]2CCCCS(=O)(=O)[O-].O=[N+]([O-])[O-].O=[N+]([O-])[O-].[99Tc+].[C-]#[O+].[C-]#[O+].[C-]#[O+].[Zn+2]  tissue uptake (healthy BALB/c mice, adrenals; 12 h, group mean): 2.36 %ID/g
COc1ccc(Nc2nc(Nc3ccc(OCCOCC[18F])cc3)ncc2Br)cc1  tissue uptake (ICR mice, S180 tumour-bearing, spleen; intravenous, 370 kBq, 5 min): 2.94 ± 0.01 %ID/g
Cc1cc(C)n(CCN(CCN)CCCCCCNC(=O)[C@@H](N)Cc2c[nH]c3ccccc23)n1.[99Tc+].[C-]#[O+].[C-]#[O+].[C-]#[O+]  tissue uptake (BALB/c nude mice, A549 xenograft, muscle; intravenous, 4 h): 0.14 ± 0.02 %IA/g
N#C[C@@H]1CCCN1C(=O)CNC(=O)c1ccnc2ccc(OCCCN3CCN(C(=O)CCc4ccc5c(c4)CN4CCN6CC(=O)[O][68Ga-]([O]C(=O)C4)([O]5)[O]c4ccc(CCC(=O)N5CCN(CCCOc7ccc8nccc(C(=O)NCC(=O)N9CCC[C@H]9C#N)c8c7)CC5)cc4C6)CC3)cc12  tissue uptake (BALB/c nude mice, U-87 MG xenograft, muscle; 1 h, blocking, with: DOTA-FAPI-04 40 nmol/mouse co-injected): 0.78 ± 0.66 %ID/g
O=C(NCC1OC2CCC=CCCC2O1)c1ccc([18F])nc1 (stereo not drawn)  tissue uptake (healthy female BALB/c nude mice, small intestine; intravenous, 7.4 MBq per mouse, 2 min): 9.9 ± 1.2 %ID/g
CCCC[C@H](NC(=O)CNC(=O)CNC(=O)[C@H](CCCCNC(=O)[C@H](CC(=O)O)NC(=O)C(C)c1ccc(CC(C)C)cc1)NC(=O)CN1CCN(CC(=O)O)CCN(CC(=O)O)CCN(CC(=O)O)CC1)C(=O)N[C@H]1CC(=O)NCCCC[C@@H](C(N)=O)NC(=O)[C@H](Cc2c[nH]c3ccccc23)NC(=O)[C@H](CCCNC(=N)N)NC(=O)[C@@H](Cc2ccccc2)NC(=O)[C@H](Cc2c[nH]cn2)NC1=O (stereo partly drawn) [lutetium-177 labelled]  tissue uptake (C57 mice, tumour-bearing, pancreas; intravenous, 0.037 MBq, 4 h): 0.17 ± 0.07 %ID/g
CC(C)C[C@H](NC(=O)[C@@H](CCCCNC(=O)[C@@H](Cc1ccccc1)NC(=O)CCCCCCCNC(=O)CN1CCN(CC(=O)O)CCN(CC(=O)O)CCN(CC(=O)O)CC1)NC(=O)[C@H](Cc1ccc(O)cc1)NC(=O)[C@H](CO)NC(=O)[C@H](Cc1c[nH]c2ccccc12)NC(=O)[C@H](Cc1c[nH]cn1)NC(=O)[C@@H]1CCC(=O)N1)C(=O)N[C@@H](CCCNC(=N)N)C(=O)N1CCC[C@H]1C(=O)NCC(N)=O [indium-111 labelled]  tissue uptake (biodistribution; male athymic nude mice, DU-145 prostate cancer xenograft, heart; intravenous, 0.037 MBq, 0.5 h post-injection): 0.65 ± 0.11 %ID/g
O=C(NCC1OC2CCC=CCCC2O1)c1ccc(COCCOCCOCC[18F])cc1 (stereo not drawn)  tissue uptake (healthy female BALB/c nude mice, skin; intravenous, 7.4 MBq per mouse, 30 min): 2.6 ± 0.2 %ID/g
O=C([O-])CN1CCN(CC(=O)[O-])CCN(CC(=O)NC[C@H]2CC[C@H](C(=O)N[C@H](Cc3cnc4ccccc4c3)C(=O)NCCCC[C@H](NC(=O)N[C@@H](CCC(=O)O)C(=O)O)C(=O)O)CC2)CCN(CC(=O)[O-])CC1.[64Cu+2]  tissue uptake (ex vivo gamma counting; 22Rv1 tumour-bearing mice, bone; intravenous, 0.74 MBq, 2 h post-injection): 4.12 %ID/g
CCCC[C@H](NC(=O)CCCCCCCNC(=O)CN1CCN(CC(=O)O)CCN(CC(=O)O)CC1)C(=O)N[C@H]1CC(=O)NCCCC[C@@H](C(N)=O)NC(=O)[C@H](Cc2c[nH]c3ccccc23)NC(=O)[C@H](CCCNC(=N)N)NC(=O)[C@@H](Cc2ccccc2)NC(=O)[C@H](Cc2c[nH]cn2)NC1=O [fluorine-18 labelled]  tissue uptake (C57 mice, B16/F10 melanoma, tumor; intravenous, 1 h, with: NDP-MSH 10 µg): 1 ± 0.16 %ID/g
Cc1cc(C)n(CCN(CCN)CCCCCCNC(=O)[C@@H](N)Cc2c[nH]cn2)n1.[99Tc+].[C-]#[O+].[C-]#[O+].[C-]#[O+]  tissue uptake (BALB/c nude mice, A549 xenograft, heart; intravenous, 4 h): 0.4 ± 0.03 %IA/g
N#C[C@@H]1CCCN1C(=O)CNC(=O)c1ccnc2ccc(OCCCN3CCN(C(=O)CCc4ccc(O)c(CN5CCN6CC(=O)[O][Al-]([18F])([O]C(=O)C5)[O]c5ccc(CCC(=O)N7CCN(CCCOc8ccc9nccc(C(=O)NCC(=O)N%10CCC[C@H]%10C#N)c9c8)CC7)cc5C6)c4)CC3)cc12 (stereo partly drawn)  tissue uptake (BALB/c nude mice, U-87 MG tumour, gallbladder; 60 min post-injection): 106 ± 31.4 %ID/g
CCCC[C@H](NC(=O)COCCOCCNC(=O)CN1CCN(CC(=O)O)CCN(CC(=O)O)CC1)C(=O)N[C@H]1CC(=O)NCCCC[C@@H](C(N)=O)NC(=O)[C@H](Cc2c[nH]c3ccccc23)NC(=O)[C@H](CCCNC(=N)N)NC(=O)[C@@H](Cc2ccccc2)NC(=O)[C@H](Cc2c[nH]cn2)NC1=O [fluorine-18 labelled]  tissue uptake (C57 mice B16-F10 melanoma, stomach; intravenous, 0.37 MBq, 1 h): 1.3 ± 0.46 %ID/g
COc1ccc(Nc2nc(Nc3ccc(OCCOCCOCC[18F])cc3)ncc2Br)cc1  tissue uptake (ICR mice, S180 tumour-bearing, spleen; intravenous, 370 kBq, 30 min): 1.47 ± 0.13 %ID/g

Some of these lines once more:
O=C([O-])CN1CCN(CC(=O)[O-])CCN(CC(=O)NC[C@H]2CC[C@H](C(=O)N[C@H](Cc3cnc4ccccc4c3)C(=O)NCCCC[C@H](NC(=O)N[C@@H](CCC(=O)O)C(=O)O)C(=O)O)CC2)CCN(CC(=O)[O-])CC1.[64Cu+2]  tissue uptake (ex vivo gamma counting; 22Rv1 tumour-bearing mice, bone; intravenous, 0.74 MBq, 2 h post-injection): 4.12 %ID/g
Cc1cc(C)n(CCN(CCN)CCCCCCNC(=O)[C@@H](N)Cc2c[nH]c3ccccc23)n1.[99Tc+].[C-]#[O+].[C-]#[O+].[C-]#[O+]  tissue uptake (BALB/c nude mice, A549 xenograft, muscle; intravenous, 4 h): 0.14 ± 0.02 %IA/g
